Measured values of several laboratories.
Lines come from different studies, so protocols differ.
Method: steady-state kinetics
B1: COMT (Homo sapiens, UniProt P21964); chain MPEAPPLLLAAVLLGLVLLVVLLLLLRHWGWGLCLIGWNEFILQPIHNLLMGDTKEQRILNHVLQHAEPGNAQSVLEAIDTYCEQKEWAMNVGDKKGKIVDAVIQEHQPSVLLELGAYCGYSAVRMARLLSPGARLITIEINPDCAAITQRMVDFAGVKDKVTLVVGASQDIIPQLKKKYDVDTLDMVFLDHWKDRYLPDTLLLEECGLLRKGTVLLADNVICPGAPDFLAHVRGSSCFECTHYQSFLEYREVVDGLEKAIYKGPGSEAGP
B2: PduO F112A (Limosilactobacillus reuteri, UniProt Q50EJ2); chain MKIYTKNGDKGQTRIIGKQILYKNDPRVAAYGEVDELNSWVGYTKSLINSHTQVLSNELEEIQQLLFDCGHDLATPADDERHSFKFKQEQPTVWLEEKIDNYTQVVPAVKKAILPGGTQLASALHVARTITRRAERQIVQLMREEQINQDVLIFINRLSDYFFAAARYANYLEQQPDMLYRNSKDVFR
B3: enzyme (UniProt A0A8H4KFE3); chain MATMQKEFTAYQARFEELKKSDNPYGRGIAWVQGELVPLHEARIPLLDQGFLHSDLTYDVPAVWDGKIFRLDDHIARLDASCKKIRLQMPMSHEAMKQTLCDMLAKSGIRDAFIQLIVTRGIKGVRESEPHEQVNTLYMFIQPYVWVMEPEMQLTGGHAIVARTVRRTPPGSIDPTVKNHQWGDLTRAMHEARDRGAKYPFLTDGDTNLTEGSGFNMCFIKDGKLYTADRGVLEGITRKSVFDVARANNIEIRCETVPVAIAYEADEIFMCTTAGGVMPITTLDGAPVKDGKIGPITRTIWDGYWAMHYDPAYTIAVKYD
B4: enzyme (Bacillus pumilus, UniProt A8FFI9); chain EARSIAWSVDEFFKNREGTFVIQEVKEKSPWVYNKKRAKERFAPQSTFKVANALIGLQTGAVRDEYDIKYWDGVKREIDNWNRDHTLGSGMRDSVVWYYQAMARDIGEERMNHWVKAIHYGNKDISGGIDQFWLSSTLRISPIEQVRFLKQLYEETLPFDLKNMRTVKRMMVQEEEKHATLYGKTGSGSDIGWYVGFIKHEHKTYILATNIKGTGIEAKDITYRILKKYHLMEASV
B5: MMP2 (Homo sapiens, UniProt P08253); chain YNFFPRKPKWDKNQITYRIIGYTPDLDPETVDDAFARAFQVWSDVTPLRFSRIHDGEADIMINFGRWEHGDGYPFDGKDGLLAHAFAPGTGVGGDSHFDDDELWTLGEGQVVRVKYGNADGEYCKFPFLFNGKEYNSCTDTGRSDGFLWCSTTYNFEKDGKYGFCPHEALFTMGGNAEGQPCKFPFRFQGTSYDSCTTEGRTDGYRWCGTTEDYDRDKKYGFCPETAMSTVGGNSEGAPCVFPFTFLGNKYESCTSAGRSDGKMWCATTANYDDDRKWGFCPDQGYSLFLVAAHEFGHAMGLEHSQDPGALMAPIYTYTKNFRLSQDDIKGIQELYGASPDIDLGTGPTPTLGPVTPEICKQDIVFDGIAQIRGEIFFFKDRFIWRTVTPRDKPMGPLLVATFWPELPEKIDAVYEAPQEEKAVFFAGNEYWIYSASTLERGYPKPLTSLGLPPDVQRVDAAFNWSKNKKTYIFAGDKFWRYNEVKKKMDPGFPKLIADAWNAIPDNLDAVVDLQGGGHSYFFKGAYYLKLENQSLKSVKFGSIKSDWLGC
B6: FMO1 I303V (Homo sapiens, UniProt Q01740); chain AKRVAIVGAGVSGLASIKCCLEEGLEPTCFERSDDLGGLWRFTEHVEEGRASLYKSVVSNSCKEMSCYSDFPFPEDYPNYVPNSQFLEYLKMYANHFDLLKHIQFKTKVCSVTKCSDSAVSGQWEVVTMHEEKQESAIFDAVMVCTGFLTNPYLPLDSFPGINAFKGQYFHSRQYKHPDIFKDKRVLVIGMGNSGTDIAVEASHLAEKVFLSTTGGGWVISRIFDSGYPWDMVFMTRFQNMLRNSLPTPIVTWLMERKINNWLNHANYGLIPEDRTQLKEFVLNDELPGRIITGKVFIRPSVKEVKENSVIFNNTSKEEPIDIIVFATGYTFAFPFLDESVVKVEDGQASLYKYIFPAHLQKPTLAIIGLIKPLGSMIPTGETQARWAVRVLKGVNKLPPPSVMIEEINARKENKPSWFGLCYCKALQSDYITYIDELLTYINAKPNLFSMLLTDPHLALTVFFGPCSPYQFRLTGPGKWEGARNAIMTQWDRTFKVIKARVVQESPSPFESFLKVFSFLALLVAIFLIFL
B7: ASRGL1 (Homo sapiens, UniProt Q7L266); chain 1 MNPIVVVHGGGAGPISKDRKERVHQGMVRAATVGYGILREGGSAVDAVEGAVVALEDDPEFNAGCGSVLNTNGEVEMDASIMDGKDLSAGAVSAVQCIANPIKLARLVMEKTPHCFLTDQGAAQFAAAMGVPEIPGEKLVTERNKKRLEKEKHEKGAQKTDCQKNLG; chain 2 TVGAVALDCKGNVAYATSTGGIVNKMVGRVGDSPCLGAGGYADNDIGAVSTTGHGESILKVNLARLTLFHIEQGKTVEEAADLSLGYMKSRVKGLGGLIVVSKTGDWVAKWTSTSMPWAAAKDGKLHFGIDPDDTTITDLP
B8: protein (Streptomyces sp. NRRL 30471, UniProt F2WUC8); chain MVRADYRTPEVNDVVRYRYGAAETALLKNRISEFGFTMAEVPGECAPQTEIERLGKALGLGEPYVAALYQRGDTRAHGALYTDVRSRAHNTHPGFGTTEGQTIHVDGLLEPIGTIRTTILFCVRPAVSGGRTVLFNSSAAFETLRHSDPAAAESLRDPGVLRRRSTLPNVDAGHTGPAFAYDNGLLITRYSEGPTVEWNAPPGRSAELERALNFLRAAAEDKRYSIALRLGAGEALIFRNDVISHGREAYRDDPAAPRHLIRTLYLESP
B9: ybiA (Escherichia coli, UniProt P30176); chain MPVRAQRIQHVMQDTIINFYSTSDDYGDFSNFAAWPIKVDGKTWPTSEHYFQAQKFLDEKYREEIRRVSSPMVAARMGRDRSKPLRKNWESVKEQVMRKALRAKFEQHAELRALLLATAPAKLVEHTENDAYWGDGGHGKGKNRLGYLLMELREQLAIEK
B10: protein (Stereum hirsutum, UniProt P9WEW2); chain MAVATSVATPVPTPAYSAGRAPAKEKKIYLPDTLAEWPWPRAINPHYAEAKEESQAWAASFNAFSPKAQHAFNRCDFNLLASLAYPLATKHGCRSGCDLMNLFFVIDEYSDIAPVEEVRQQKDIVMDALRNPHKPRPEGEWVGGEVARQFWALTITNASAQSQKHFIETFDEYLDSVVQQAEDRSESRIRDIQSYIDVRRNTIGAKPSFALLELDMDLPDEVLAHPTIQSLSLATIDMLCLGNDIVSYNLEQARGDASHNIITIVMNELNLDVNGAMRWVGDFHKQLEKQFFEAFNNLPKWGNAELDAQIAVYCDGLGNWVRANDQWSFESERYFGARGLEIMETKTLAMMPIQRTEALGPQLVDDSIL
B11: TcC (Trypanosoma cruzi, UniProt Q4DGA3); chain MPREYEFAEKILFTEEEIRTRIMEVAKRIADDYKGKGLRPYVNPLVLISVLKGSFMFTADLCRALSDFNVPVRMEFICVSSYGEGVTSSGQVRMLLDTRHSIEGHHVLIVEDIVDTALTLNYLYHMYFTRRPASLKTVVLLDKREGRRVPFSADYVVANIPNAFVIGYGLDYDDTYRELRDIVVLRPEVYAEREAARQKKQRAIGSADTDRDAKREFHSKY
B12: enzyme (Thermococcus kodakarensis, UniProt Q5JID5); chain MLYVEILGNLPEMARDEVKAMLELGGGEIIGQDYLFLKVDAGEKAFPFLDRLGLAHEYGLLLVEADSVEELLQKAGEVEWPIKGAFKVDTETMANCRHDVLDLPRKLGAVIHAQGFRVNLSKPDTVVRVYCGERLYAGIRLRYFDPKDFEKRKAHHRPFFRPISLHPRVSRALVNLTKATREILDPFMGAGGILIEAGLLGLRVYGVDIRPEMVEGAETNLKHYGVRDYTLKLGDATRLEDLFPDKKFEAVATDPPYGTAATLAGRKRDELYRKALRSIYNVLEDGGRLAIAFPTDFNGKAEAEAVGFRTLGRYYQRVHKSLERYFYVFEK
B13: enzyme (Arabidopsis thaliana, UniProt O82390); chain MNARALLCSSNIHSLYTSNRPPEKTSSSRSLRNLKPSPKSLRVWIYPRNRSSVFRVLVRSSDKSESSNSYYVEGDKVSGNNDVVSDSPSSIVLPWWEEFPKRWVIVLLCFSAFLLCNMDRVNMSIAILPMSAEYGWNPATVGLIQSSFFWGYLLTQIAGGIWADTVGGKRVLGFGVIWWSIATILTPVAAKLGLPYLLVVRAFMGVGEGVAMPAMNNILSKWVPVQERSRSLALVYSGMYLGSVTGLAFSPFLIHQFGWPSVFYSFGSLGTVWLTLWLTKAESSPLEDPTLLPEERKLIADNCASKEPVKSIPWRLILSKPPVWALISCHFCHNWGTFILLTWMPTYYHQVLKFNLMESGLLSVFPWMTMAISANAGGWIADTLVSRGFSVTNVRKIMQTIGFLGPAFFLTQLKHIDSPTMAVLCMACSQGTDAFSQSGLYSNHQDIAPRYSGVLLGLSNTAGVLAGVLGTAATGHILQHGSWDDVFTISVGLYLVGTVIWNLFSTGEKIID
Chain of UniProt Q6PHW0 (whole entry, looked up): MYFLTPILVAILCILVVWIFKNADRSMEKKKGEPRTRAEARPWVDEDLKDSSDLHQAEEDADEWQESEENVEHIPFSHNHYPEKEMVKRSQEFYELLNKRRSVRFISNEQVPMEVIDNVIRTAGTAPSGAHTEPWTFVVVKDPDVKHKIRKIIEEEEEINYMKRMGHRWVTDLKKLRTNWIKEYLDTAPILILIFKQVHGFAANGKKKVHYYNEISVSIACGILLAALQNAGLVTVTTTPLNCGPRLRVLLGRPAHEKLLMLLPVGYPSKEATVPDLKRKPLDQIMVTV

Molecule	substrate	system	setting	Km
B1 (COMT)	O=c1oc2c(O)c(O)ccc2cc1-c1nc2ccccc2s1	human liver S9	pH 7.4, 37 °C	1.6 µM
B2 (PduO F112A)	Nc1ncnc2c1ncn2[C@@H]1O[C@H](COP(=O)(O)OP(=O)(O)OP(=O)(O)O)[C@@H](O)[C@H]1O	–	pH 8, 37 °C, anoxic, added: cob(I)alamin	34.6 µM
Ptb (Listeria monocytogenes, UniProt Q8Y7B7)	CC(C)CC(=O)SCCNC(=O)CCNC(=O)[C@H](O)C(C)(C)COP(=O)(O)OP(=O)(O)OC[C@H]1O[C@@H](n2cnc3c(N)ncnc32)[C@H](O)[C@@H]1OP(=O)(O)O	–	pH 7.5, 25 °C, apparent	53.2 µM
FMO1 (Homo sapiens, UniProt Q01740)	CCN(CC)CCNC(=O)c1ccc(N)cc1	–	pH 7.4, 37 °C, added: NADPH 2 mM	543 µM
B3 (enzyme)	CC(C)(C)OC(=O)N1CCCC(=O)C1	–	pH 7, 30 °C	670 µM
IYD (Homo sapiens, UniProt Q6PHW0)	COc1cc(C[C@H](N)C(=O)O)cc(I)c1O	–	pH 7.4, 25 °C, added: sodium dithionite 0.5%	77 µM
B4 (enzyme)	C[C@@H](O)[C@H]1C(=O)N2C(C(=O)O)=C(S[C@@H]3CN[C@H](C(=O)N(C)C)C3)[C@H](C)[C@H]12	–	pH 7	4.2 µM
B5 (MMP2)	CC(=O)NCC(=O)N1CCC[C@H]1C(=O)N[C@@H](CC(C)C)C(=O)NCC(=O)N[C@@H](CC(C)C)C(=O)N[C@@H](CO)C(=O)N[C@@H](CC(C)C)C(=O)NCC(=O)N[C@@H](CCCCN)C(N)=O	–	–	216 µM
B6 (FMO1 I303V)	CN1CCC[C@H]1c1cccnc1	HEK293 microsomes	37 °C, not purified, added: NADPH regenerating system	1800 µM
B7 (ASRGL1)	CC(C)C[C@H](NC(=O)C[C@H](N)C(=O)O)C(=O)O	–	pH 7.4, 37 °C, NaCl 100 mM	1200 µM
B8 (protein)	O=c1ccn([C@@H]2O[C@H](COP(=O)(O)O)[C@@H](O)[C@H]2O)c(=O)[nH]1	–	pH 7.5, 30 °C, added: αKG 2 mM, ascorbic acid 2 mM, FeCl2 0.4 mM	21 µM
B9 (ybiA)	Nc1c(N[C@@H]2O[C@H](COP(=O)(O)O)[C@@H](O)[C@H]2O)[nH]c(=O)[nH]c1=O	–	pH 8, 22 °C, substrate not purified	5840 µM
B10 (protein)	CC(C)=CCC/C(C)=C/CC/C(C)=C/CO[P@@](=O)(O)OP(=O)(O)O	–	pH 8, NaCl 200 mM, added: FPP 1–100 µM	1.52 µM
B11 (TcC)	O=c1[nH]c(=O)c2[nH]cnc2[nH]1	–	pH 8.3, 37 °C, apparent, added: PRPP 1 mM, MgCl2 12 mM	150 µM
alanine aminopeptidase (Neisseria meningitidis, UniProt Q9JYV4)	N=C(N)NCCC[C@H](N)C(=O)Nc1ccc2c(CC(N)=O)cc(=O)oc2c1	–	pH 7.5, 37 °C	64.1 µM
B12 (enzyme)	C[S+](CC[C@H](N)C(=O)O)C[C@H]1O[C@@H](n2cnc3c(N)ncnc32)[C@H](O)[C@@H]1O	–	pH 7.5, 50 °C, apparent	7 µM
B13 (enzyme)	O=P(O)(O)O	–	pH 6.5, 25 °C, apparent, not purified	77.1 µM
